Assay results collected from several papers.
Each numbered part is a random draw from the data of one study; scales do not carry over between parts. Substitutions count along the parent as printed.

Study 1 — method: RNA Bind-n-Seq; molecule type: RNA; sample: in vitro; concentration: 365 nM; baseline: no-protein control; direction: higher = stronger binding; quantity: RBNS enrichment (R)
Target: RNA binding protein fox-1 homolog 2, RRM domain, GST-SBP tag (RBFOX2, Homo sapiens, UniProt O43251-10, residues 100-194)
Notes: natural RNA segment, single round, ends assumed
Constant ends, left off below: GGGAGUUCUACAGUCCGACGAUC … UGGAAUUCUCGGGUGCCAA
Target sequence (chain): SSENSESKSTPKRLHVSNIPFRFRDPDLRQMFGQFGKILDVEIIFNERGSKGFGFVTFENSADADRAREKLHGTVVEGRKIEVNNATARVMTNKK
GAAUAUGUCACAUAAAGAAAAUGUGUUUAGAAUACUGGUUUUCUAUUUACGCAUGAUAUUUUCCUAAGUAAAAUUGCCAAGUGGACUUGGAAGUCCAGAAAGGAAAAUAA: 3.34
GCCAAAGACAUUUCAAGUGCCUGUAACUGAUUUGUCCAUAUUUAUAAACACUGAUCUGGAAAUUGGUCCUGUGAUGCACGUGCUUUGCCCUGGAUGCACCUGAACUCGUC: 11.2
UUUCACAUCUCCAUAGCUAGACCCGCCAUGGGCAUUAUGACCGUGUCUCCUAAAGGGUCGGUUUUGUUACGCAACACGAAGAAUGCUGUCUCAGCCUUGUUUUUCUAGAG: 0.568
GCAGAUCUUCGUGGUUAUCAUCUCAAAGCCAUGUUCAGCAGCAGCGUUUGGACAGCAGUGUUCUGUGGGCCCUCCCCUCCCCCAUAUCCUGCACCCCCUCAUAGCAGUAG: 0.56
UUAAUUAAAUAAAUAAAUAAAUCUGGGUCUGCAUCUCUUAUUAAAUAAAAAUAUAAAAAUAUGUACAUUACAUUUUGCUUAUUUUCAUAUAAAAGGUAAGACAGAGUUUG: 0.72
GUUUUGUCAUAUAAAAAGUUUAUAAAUGUUUGCUAUCAGACUGACAUUAAAUAGAAGCUAUGAUGAACACCUGGCGGGGUUUGUUCUCUCUCCAAUGCUCCGAGUCCACU: 0.199
GAGUGAGAUGGAGCUGGUCUUUGCAGAAGAGAAAUACAACAAAUCAGGUCAACUGGAUAAGAUUGUAGAACUCAUGACAGGCGGAGCUCAAACCCCAGUCACCAAUGCAA: 0.479
UUUCCAAAGGUUAGGGAAGAUUCCAAUUAAAUUUAUGCCUUAUAAAAUUAUGUUGUAGAAAAAAAAUCAACCUCUCCCAGGUGCAUUAAGAAAUAAGAAUUCCCAGGGUU: 0.882

Study 2 — target: CCNF, cyclin fold, Cln2 fusion (human); method: yeast growth competition, sequencing; sample: yeast; notes: weak parent motif; baseline: not given; direction: higher = stronger binding; quantity: normalised enrichment score
Parent: FOXM1 docking peptide (human); PHLARPIKVESPP; partner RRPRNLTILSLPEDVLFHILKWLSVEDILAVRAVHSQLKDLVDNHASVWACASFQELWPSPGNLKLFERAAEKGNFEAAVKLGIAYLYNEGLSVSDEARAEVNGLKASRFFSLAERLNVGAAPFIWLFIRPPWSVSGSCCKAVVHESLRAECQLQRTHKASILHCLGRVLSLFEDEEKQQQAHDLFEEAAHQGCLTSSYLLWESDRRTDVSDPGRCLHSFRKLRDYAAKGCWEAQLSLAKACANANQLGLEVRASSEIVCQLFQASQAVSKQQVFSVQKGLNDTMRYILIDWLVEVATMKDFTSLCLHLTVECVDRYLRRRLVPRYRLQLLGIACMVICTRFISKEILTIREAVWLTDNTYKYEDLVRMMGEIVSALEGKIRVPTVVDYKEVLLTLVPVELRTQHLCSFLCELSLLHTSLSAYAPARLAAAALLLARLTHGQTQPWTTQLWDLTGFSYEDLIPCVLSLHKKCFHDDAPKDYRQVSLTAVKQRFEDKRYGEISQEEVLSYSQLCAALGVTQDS
PALARPIKVESPP [H2A]: -0.559
PHAARPIKVESPP [L3A]: 0.218
PHLARPIAVESPP [K8A]: -0.488
PHLAAPIKVESPP [R5A]: -0.9
PHLARPIKVEAPP [S11A]: -0.438
PHLARAIKVESPP [P6A]: -0.074

Study 3 — method: RNA Bind-n-Seq; molecule type: RNA; sample: in vitro; concentration: not given; baseline: input RNA pool; direction: higher = stronger binding; quantity: bound/input enrichment
Target: RING finger protein unkempt homolog, zinc fingers 1-6, GST-SBP tag (UNK, Homo sapiens, UniProt Q9C0B0, residues 30-357)
Chain of UniProt Q9C0B0 (30-357, looked up): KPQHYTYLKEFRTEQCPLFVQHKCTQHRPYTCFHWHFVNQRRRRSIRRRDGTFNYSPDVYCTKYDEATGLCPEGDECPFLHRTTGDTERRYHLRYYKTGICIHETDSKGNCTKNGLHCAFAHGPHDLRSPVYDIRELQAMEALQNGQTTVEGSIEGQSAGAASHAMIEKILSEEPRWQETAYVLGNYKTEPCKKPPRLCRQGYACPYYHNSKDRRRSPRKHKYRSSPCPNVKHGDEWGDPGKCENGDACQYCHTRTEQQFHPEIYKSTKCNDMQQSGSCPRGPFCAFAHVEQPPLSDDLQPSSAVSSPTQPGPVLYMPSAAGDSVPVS
Notes: RNA with constant flanks, human and mouse sites, ends assumed
Constant ends, left off below: GGGAGUUCUACAGUCCGACGAUC … CAACAGAGGAUUGAGCAUCA
AUGUCAGUGAGGCGAGAACUCUGUGCUGUGAUGGUGUUCGCAGUGGUGGAAAGAGCAGGGACCAUAGUGUUAAAUGAUGGUGAAGAGCUGGACUCCUGGUCAGUGAUUCUCAAUGGAUCU: 0.21 ratio
UAGAUUGUAUCGCUAAUUUUUACUUUUUAAAAAUUCAUUUAUGUGUGUAUUGUUUGCAUGUUAGGUGUGGGUAUGUGCAGACUAGAGGACUGUGGGAAUCACUUGGAGGUAGUUAUUACA: 2.65 ratio
GUGUGCUCUGAGGGAGGGUCCGAGCCAGCCGCUGUUUUGCCGGAGGAGCCCCUCAGGCCGUAGUAAGCAUUAAUAAUGUCUUUCAUCUUUGAGUGGAUCUACAAUGGCUUCAGCAGUGUG: 0.25 ratio
AGCAAAACAUACAAGAUUGAUUCUUGGGAGAAUGCUGAGGACUUUCUUGAGAAGCUCGCUUUCCGGACUGGGAAGUUACUAAAGGGUGGAGAGCCCGACUUGCAGACUGUGGGUAAGAUG: 0.385 ratio
AAUGUCAUCGAUGCCAAUUUCUGCAUGAAAGGAGAAGACCUGGACUCUCAGGUUGGAGUUAUAGAUUUUUCGAUGUAUCUCAAAGAUGGAAACAGUAGUAAAGGUAGUGAAGGGGAUGGA: 1.77 ratio
ACUUCCCCUUCAGUUGUAUCUUCUUACAGUGAUUGGUACAGUUAUUAGAUAUAAAGGUAACUGAUGUUAUUCGUCUUGUAUGGCUUUUAGUAUGUUUAUCAAGUGGCUAACAAAUGCAUU: 1.95 ratio
GCUGAAUUUGCUGAGUUAAAGACACAGAUAGAGAGACUGAGACUAGAUUACCAGCACGAAAUAGAAAGUUUACAGAGUAAACAGGACUCUGAGCGGUCUGCUCAUGCUAAAGAGAUGGAG: 0.869 ratio
AAUACUACUUCAUGCCAUCCCAGGUUGGAAUCGCAACUCCCAACUCUCCCUAACUAAACCAUAUACAGUGAAAGUGAAAAAAGGCUCUCAAGAAGGAAGGGAGGCCACUGCUGAAAAGUA: 0.288 ratio

Further values, each from its own experiment
PhoQ, residues 284 288 289 292 302 303 SCKMEA  fold induction (PhoP, residues 12 14 15 18 19 NHFIF (Escherichia coli, UniProt P23836); Sort-seq, refers to: YFP reporter; E. coli; PhoQ-PhoP variant library, together with: 10 µM Mg2+; baseline: high Mg2+ state, higher = stronger signaling): 22.4

A few entries again (study 3):
GUGUGCUCUGAGGGAGGGUCCGAGCCAGCCGCUGUUUUGCCGGAGGAGCCCCUCAGGCCGUAGUAAGCAUUAAUAAUGUCUUUCAUCUUUGAGUGGAUCUACAAUGGCUUCAGCAGUGUG: 0.25 ratio
